# Measurements from different studies.
# Compare with care: the assays were run in different laboratories.
SMILES,organism,assay,test system,setting,measurement,result
O=C(CNc1ccccc1N1CCCC1=O)Nc1ccc(Oc2ccccc2Cl)cc1,Plasmodium falciparum,parasite growth,3D7,"72 h, blood stage",EC50,> 10 µM
O=C(O)/C=C/C(=O)O,Cryptosporidium parvum,"parasite growth, imaging",HCT-8,"1 mM, 24 h, intracellular",activity vs control,73.7%
CCS(=O)(=O)Oc1ccc(C=NNC(=O)CSc2nc3ccc(Cl)cc3c(=O)n2-c2ccccc2)cc1,Pseudomonas aeruginosa,"microbial growth, well diffusion",,20 µg/mL,inhibition zone,2 mm
Cc1cccc(C(=O)C#Cc2ccc(F)c(F)c2)c1,Pseudomonas aeruginosa,"microbial growth, absorbance",,"10 µM, 24 h",activity vs control,103%
CC1(C)S[C@@H]2[C@H](NC(=O)[C@H](N)c3ccccc3)C(=O)N2[C@H]1C(=O)O,Streptococcus pneumoniae,microbial growth,PRSP,clinical isolate,MIC90,16 µg/mL
Cc1ccc(N(c2ccc(NC(=O)CN(C)c3ccccc3N3CCCC3=O)cc2)C2CCCC2)cc1,Plasmodium falciparum,parasite growth,3D7,"72 h, blood stage",EC50,0.035 µM
COC(=O)Nc1nc2cc(C(=O)c3ccc(F)cc3)ccc2[nH]1,Cryptococcus neoformans,"microbial growth, broth dilution",,"72 h, clinical isolate",IC90,5 µM
CC(=O)OC[C@@]1(C)[C@H]2CC[C@@H]3CN(Cc4ccc(C)cc4)[C@@H](C4=CCOC4=O)C[C@H]3[C@]2(C)CC[C@H]1OC(C)=O,unidentified human coronavirus,cytopathic effect,MRC5,"25 µM, 72 h",inhibition,79.3%
COC(=O)N[C@H](C(=O)N1CC2(CC2)C[C@H]1c1nc(-c2ccc3c(c2)C(F)(F)c2cc(-c4ccc5[nH]c([C@@H]6[C@H]7CC[C@H](C7)N6C(=O)[C@@H](NC(=O)OC)C(C)C)nc5c4)ccc2-3)c[nH]1)C(C)C,Trypanosoma cruzi,"parasite growth, absorbance","Vero, TULAHUEN","96 h, intracellular, amastigote",IC50,0.04 µM
O=C1CCN2C(=O)c3ccccc3C2C(=O)Nc2ccc(F)cc21 (stereo not drawn),Schistosoma mansoni,parasite growth,,"10 µM, 72 h, larva",inhibition,33%
C#Cc1cccc(Nc2ncnc3cc(OCCOC)c(OCCO)cc23)c1,Staphylococcus aureus,microbial growth,NCTC8325,,MIC,> 30 µM
CN(Cc1ccc(C(C)(C)C)cc1)Cc1cccc2ccccc12,Trichophyton rubrum,"microbial growth, disc diffusion",ATCC28188,"0.128 µg/mL, 6 days",inhibition zone,≥ 55 mm
CC[C@H](N)C(=O)O,Cryptosporidium parvum,"parasite growth, imaging",HCT-8,"1 mM, 24 h, intracellular",activity vs control,101%
Cc1ccc(Oc2ccc(NC(=O)C(C)Nc3ccccc3N3CCCC3=O)cc2)cc1 (stereo not drawn),Plasmodium falciparum,parasite growth,3D7,"72 h, blood stage",EC50,> 10 µM
Cc1ccc2cc[nH]c2c1,Cryptosporidium parvum,parasite growth,HCT-8,"24 h, intracellular",EC90,1270 µM
Oc1cccc(-c2nc(N3CCOCC3)c3oc4ncccc4c3n2)c1,Staphylococcus aureus,microbial growth,NCTC8325,,MIC,> 30 µM
O=C(O)c1cc(O)c2cccc(O)c2n1,Cryptosporidium parvum,"parasite growth, imaging",HCT-8,"1 mM, 24 h, intracellular",activity vs control,110%
O=C(C#Cc1ccc(F)c(F)c1)c1ccccc1,Pseudomonas aeruginosa,"microbial growth, absorbance",,"100 µM, 24 h",activity vs control,82%
Cc1ccc(Cc2ccc(NC(=O)CN(C)c3ccccc3N3CCCC3=O)cc2)cc1,Plasmodium falciparum,parasite growth,3D7,"72 h, blood stage",EC50,0.728 µM
COc1cc(C#CC(=O)C(C)C)ccc1O,Pseudomonas aeruginosa,"microbial growth, absorbance",,"100 µM, 24 h",activity vs control,87%
C#CCON=C1C=CC(=C(C#N)c2ccccc2)C=C1,Candida tropicalis,"microbial killing, broth dilution",ATCC13803,48 h,MFC,32 µg/mL
Nc1ncnc2[nH]cnc12,Cryptosporidium parvum,"parasite growth, imaging",HCT-8,"1 mM, 24 h, intracellular",activity vs control,79.8%
CC(C)(C)Cn1c(N)nc2ccc(-c3[nH]c(C(C)(C)C)nc3-c3ccc(F)cc3)nc21,Staphylococcus aureus,microbial growth,NCTC8325,,MIC,> 30 µM
O=C(C#Cc1ccc(F)c(F)c1)c1ccc(Cl)cc1,Pseudomonas aeruginosa,"microbial growth, absorbance",,"10 µM, 24 h",activity vs control,98%
CCOc1cc2ncc(C#N)c(Nc3ccc(OCc4ccccn4)c(Cl)c3)c2cc1NC(=O)/C=C/CN(C)C,Staphylococcus aureus,microbial growth,NCTC8325,,MIC,> 30 µM
CN(Cc1ccc(C2(C(F)(F)F)CC2)cc1)Cc1cccc2ccccc12,Trichophyton rubrum,"microbial growth, disc diffusion",ATCC28188,"0.032 µg/mL, 6 days",inhibition zone,55 mm
COc1cc(C#CC(=O)c2ccccc2C)ccc1O,Pseudomonas aeruginosa,"microbial growth, absorbance",,"100 µM, 24 h",activity vs control,122%
O=C(O)Cc1c[nH]c2ccc(O)cc12,Cryptosporidium parvum,"parasite growth, imaging",HCT-8,"1 mM, 24 h, intracellular",activity vs control,101%
O=C(C#Cc1ccc(F)c(F)c1)c1ccccc1Cl,Pseudomonas aeruginosa,"microbial growth, absorbance",,"10 µM, 24 h",activity vs control,98%
CC(=O)NC[C@H]1CN(c2ccc(N3CCOCC3)c(F)c2)C(=O)O1,Staphylococcus epidermidis,"microbial growth, broth dilution",,clinical isolate,MIC90,1 µg/mL
COc1ccc2cc[nH]c2c1,Cryptosporidium parvum,parasite growth,HCT-8,"24 h, intracellular",EC90,746 µM
Cc1ccc(C(O)c2ccc(NC(=O)CN(C)c3ccccc3N3CCCC3=O)cc2)cc1 (stereo not drawn),Plasmodium falciparum,parasite growth,3D7,"72 h, blood stage",EC50,4.83 µM
COc1cc(C#CC(=O)c2ccc(Cl)cc2)ccc1O,Pseudomonas aeruginosa,"microbial growth, absorbance",,"10 µM, 24 h",activity vs control,101%
Cc1ccc(Oc2ccc(NC(=O)CNc3ccccc3-n3cccn3)cc2)cc1,Plasmodium falciparum,parasite growth,3D7,"72 h, blood stage",EC50,> 10 µM
CO[C@H]1C[C@@H]2CC[C@@H](C)[C@@](O)(O2)C(=O)C(=O)N2CCCC[C@H]2C(=O)O[C@H]([C@H](C)C[C@@H]2CC[C@@H](O)[C@H](OC)C2)CC(=O)[C@H](C)/C=C(\C)[C@@H](O)[C@@H](OC)C(=O)[C@H](C)C[C@H](C)/C=C/C=C/C=C/1C,Trypanosoma cruzi,"parasite growth, absorbance","Vero, TULAHUEN","96 h, intracellular, amastigote",IC50,8.11 µM
CCCCCCCCNC(=O)Nc1ccc(Oc2ccnc(C(=O)NC)c2)cc1,Staphylococcus aureus,microbial growth,NCTC8325,,MIC,> 100 µM
CCCS(=O)(=O)Oc1ccc(C=NNC(=O)CSc2nc3ccc(Cl)cc3c(=O)n2-c2ccccc2)cc1OC,Pseudomonas aeruginosa,"microbial growth, well diffusion",,20 µg/mL,inhibition zone,2 mm
O=C(NOC[C@H](O)CO)c1ccc(F)c(F)c1Nc1ccc(I)cc1F,Staphylococcus aureus,microbial growth,NCTC8325,,MIC,> 30 µM
C[C@@]12COCO[C@@H]1CC[C@]1(C)[C@@H]2CC[C@@H]2CN(Cc3ccco3)[C@@H](C3=CCOC3=O)C[C@H]21,unidentified human coronavirus,cytopathic effect,MRC5,"25 µM, 72 h",inhibition,41.7%
COC(=O)c1sc(C(C)(C)C)cc1NC(=O)Nc1ccc(Oc2ccccc2)cc1,Staphylococcus aureus,microbial growth,NCTC8325,,MIC,> 100 µM
COc1cc(C#CC(=O)CC(C)C)ccc1O,Pseudomonas aeruginosa,"microbial growth, absorbance",,"10 µM, 24 h",activity vs control,90%
Cc1ccc(N(C)c2ccc(NC(=O)CN(C)c3ccccc3N3CCCC3=O)cc2)cc1F,Plasmodium falciparum,parasite growth,3D7,"72 h, blood stage",EC50,0.026 µM
O=C(CO)[C@H](O)[C@H](O)COP(=O)(O)O,Cryptosporidium parvum,"parasite growth, imaging",HCT-8,"1 mM, 24 h, intracellular",activity vs control,103%
FC(F)(F)c1ccc(/C=C/c2nc(COc3ccc(CCCCn4ccnn4)cc3)co2)cc1,Staphylococcus aureus,microbial growth,NCTC8325,,MIC,> 30 µM
CCC(C)N(c1ccc(C)cc1)c1ccc(NC(=O)CN(C)c2ccccc2N2CCCC2=O)cc1 (stereo not drawn),Plasmodium falciparum,parasite growth,3D7,"72 h, blood stage",EC50,0.014 µM
